Experimental data pooled from the literature.
Lines come from different studies, so protocols differ. Values joined by “and” are separate records of one study, mostly repeats; a detail may differ.
Target: Vascular endothelial growth factor receptor 3 (FLT4, Homo sapiens, UniProt P35916)

Compound	test	setting	scale	endpoint	value
CC(C)=CC1OC(C)(C)C2C=C3C(=O)C(Cl)=CC(O)C3C3C(O)C4OC4C(=O)C132 (centres unmarked)	cell-free assay, competition with immobilised ligand	10 µM	–	remaining binding	88%
CNC1C[S+]2CC[S+]3CC[S+](C1)[Ru-4]321([N]=C=S)[n]2c3ccc(OC)cc3c3c4c(c5cc(F)c[n+]1c5c32)C(=O)NC4=O (centres unmarked)	KinomeScan	0.1 µM	relative to: untreated	remaining binding	100%
CNC(=O)C1CCN(c2cc(C)c(F)cc2NC(=O)c2ccc(-c3cc(O)ccc3C)c(C)c2)CC1	binding, competition with immobilised ligand	1 µM	–	remaining binding	100%
COc1cc(Nc2nc(C)cc(-c3cnn4nc(OC)ccc34)n2)cc(C(F)(F)F)c1	inhibitor	1 µM	relative to: control	remaining activity	89%
CCN1CCN(Cc2ccc(C(=O)Nc3ccc(C)c(NCc4cnc5[nH]ccc5c4OC)c3)cc2C(F)(F)F)CC1	binding, competition with immobilised ligand	1 µM	–	remaining binding	11%
Cc1ccc(-c2c(/C=C(\C#N)C(=O)NC(C)C)n(CCCO)c3ncnc(N)c23)cc1	cell-free assay, competition with immobilised ligand	1 µM	–	remaining binding	100%
NC(=O)[C@@H](O)C[C@H]1CCc2sc3ncnc(O[C@H]4CC[C@H](N5CCOCC5)CC4)c3c21	enzyme activity, inhibitor	10 µM	–	inhibition	17%
COc1ccc(NC(=O)Nc2ccc3c(c2)C(=O)N(C(C)CO)CC(C)C(CN(C)Cc2ccc4c(c2)OCO4)O3)cc1 (centres unmarked)	kinase activity, KinaseProfiler	0.03 µM, species human	relative to: control	remaining activity	101%
Cc1cccc(O[C@H]2CCC[C@@H](C(C)CNCc3ccncc3)C2)c1 (relative stereo)	cell-free assay	1 µM	–	inhibition	2%
CN1CCN(c2ccc(Nc3ncc(Cl)c(Nc4ccccc4P(C)(C)=O)n3)cc2Br)CC1	enzyme activity, inhibitor	0.1 µM	–	inhibition	48.6%
C=CC(=O)Nc1cccc(-c2cnc3[nH]cc(C(=O)NC(C)(C)C)c3n2)c1	kinase activity	0.1 µM	–	inhibition	47% and 44%
O=C(Cc1ccc(OCc2ccccc2)cc1)NC1(C(=O)O)CCN(C(=O)c2ccc(-c3cccc(Cl)c3)cc2)CC1	enzyme activity, inhibitor	10 µM	–	activity vs control	56%
COCC12C(=O)NC3C4(C(OC)CC1O)C1CC5(O)C(OC)C(O)C(OC(C)=O)(C1C5OC(=O)c1ccccc1)C3(O)C(OC)C24 (centres unmarked)	kinase activity, inhibitor, ProQinase kinase profiling	25 µM	relative to: control	remaining activity	109% and 96%
COc1c(Cl)cccc1Nc1c(-c2ccncc2C#C[C@@]2(C)CCCN2C(=O)/C=C/CN(C)C)[nH]c2c1C(=O)NCC2	cell-free assay, competition with immobilised ligand	3 µM	–	remaining binding	92%
C[C@H]1CN(C(=O)c2cn(-c3ccnc(N)n3)c3cc(C#CC4(O)CCCCC4)ccc23)CCN1	enzyme activity, inhibitor, FRET	1 µM	–	inhibition	-2%
COc1c(OCCCN2CCOCC2)ccc2c1N=C(NC(=O)c1cnc(N)nc1)N1CCN=C21	kinase activity, inhibitor	1 µM	relative to: untreated control	remaining activity	102%
C=CC(=O)N1CCCC(n2c(=O)c3ncccc3n(Cc3ccc(Oc4ccccc4)cc3)c2=O)C1 (centres unmarked)	cell-free assay, competition with immobilised ligand	1 µM	–	remaining binding	80%
